# Measured values gathered from unrelated publications.
# Parts stem from different laboratories: compare values within a part only.

# Block 1
# Target: Interferon regulatory factor 5, full length, phosphomimetic (IRF5, Homo sapiens, UniProt Q13568-2, residues 1-514, K96S/S451D/S453D/S456D/S462D)
# Technique: protein-binding microarray
# Molecule type: double-stranded DNA, one strand shown
# Sample: in vitro
# Concentration: 250 nM
# Notes: 60-bp whole probe
# Added: salmon DNA 0.4 mg/ml
# Relative to: random background probes
# Direction: higher = stronger binding
Sequence,log fluorescence [z-score]
GCCTAGCACTTAGGAATGGACTATCGGTTAGTGCTAGTCTTGATTCGCTTGACGCTGCTG,6.04
GCCTAGCACGACGGTTTCGGGTTCGGGACGTGCTAGGTCTTGATTCGCTTGACGCTGCTG,7.03
GCCTAGCACTCACCTCTCCATACTTCACTGTGCTAGGTCTTGATTCGCTTGACGCTGCTG,-0.0374
GCCTAGCACGACCGACTGGACTATCGGGACGTGCTAGTCTTGATTCGCTTGACGCTGCTG,0.962

# Block 2
# Target: Ras GTPase-activating protein-binding protein 1, C-terminal RGG region (G3BP1, Homo sapiens, UniProt Q13283)
# UniProt Q13283, sequence (whole entry, looked up): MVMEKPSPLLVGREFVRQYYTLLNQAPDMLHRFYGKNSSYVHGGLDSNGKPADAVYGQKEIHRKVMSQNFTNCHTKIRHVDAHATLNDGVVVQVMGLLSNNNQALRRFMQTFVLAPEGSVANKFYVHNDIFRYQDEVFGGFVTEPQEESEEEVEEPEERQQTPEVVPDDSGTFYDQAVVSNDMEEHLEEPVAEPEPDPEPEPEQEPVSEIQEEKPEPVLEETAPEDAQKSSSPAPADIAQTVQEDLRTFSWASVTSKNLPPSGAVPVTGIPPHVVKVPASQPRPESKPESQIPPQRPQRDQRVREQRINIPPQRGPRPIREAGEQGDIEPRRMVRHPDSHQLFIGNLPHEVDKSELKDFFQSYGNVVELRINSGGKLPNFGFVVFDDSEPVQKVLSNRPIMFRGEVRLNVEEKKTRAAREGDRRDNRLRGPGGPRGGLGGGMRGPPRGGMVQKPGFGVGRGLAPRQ
# Technique: RNA Bind-n-Seq
# Molecule type: RNA
# Sample: in vitro
# Concentration: 1 µM
# Notes: whole 134-nt RNA, ends assumed
# Added: 150 mM KCl
# Relative to: input library
# Direction: higher = stronger binding
Sequence,log2 enrichment
GGGAGUUCUACAGUCCGACGAUCCAAGUCCUGUGCUACACAUCGUAUGUACCGAAUCGGAAAGGAAAAAGGAAAAAGGAAAGUAUUAUGUUACGCCGUUCGGAUCUGCACUUCUGGAAUUCUCGGGUGUCAAGG,-1.73
GGGAGUUCUACAGUCCGACGAUCACCAUGCAGGUGGGCAUCUUUGGGAAGUGGGGCAAGGGGGGGAUAGGGAGGGGGGUAACACUUUGGGAACAGGUGGUCCCAGGUAAAUUCUGGAAUUCUCGGGUGUCAAGG,-1.23
GGGAGUUCUACAGUCCGACGAUCAGUCCUGUGCUACACAUCGUAUGUACCGAAUCGGGAAAGGGAAAAAGGGUUUUUGGGAAAGUAUUAUGUUACGCCGUUCGGAUCUGCACUUGGAAUUCUCGGGUGUCAAGG,0.396

# Block 3
# Target: Prothrombin, mature alpha-thrombin (F2, Homo sapiens, UniProt P00734)
# Technique: aptamer microarray, sandwich
# Molecule type: DNA with 2'F-ANA
# Sample: in vitro
# Concentration: 200 nM
# Notes: whole 15-mer aptamer, many near background
# Added: Cy3 exosite-II aptamer, 400 nM
# Direction: higher = stronger binding
Sequence,mean fluorescence intensity [a.u.]
GGTTGGTGTGGTTGG (2'F-ANA at 1 3 7 8 10 11 13 14),65.7
GGTTGGTGTGGTTGG (2'F-ANA at 1 3 4 7 8 10 13 14 15),53.9
GGTTGGTGTGGTTGG (2'F-ANA at 1 2 3 4 7 8 9 11 12 13 15),209

# Single results of other studies
Substance,target,assay,test system,setting,how to read,endpoint,result
"PhoQ, residues 284 288 289 292 302 303 AMDMFI","PhoP, residues 12 14 15 18 19 LWHVM (Escherichia coli, UniProt P23836)","Sort-seq, refers to: YFP reporter",E. coli,"PhoQ-PhoP variant library, added: 10 µM Mg2+","relative to: high Mg2+ state, higher = stronger signaling",fold induction,0.901

# For quick reference, copied from above (block 2):
Sequence,log2 enrichment
GGGAGUUCUACAGUCCGACGAUCCAAGUCCUGUGCUACACAUCGUAUGUACCGAAUCGGAAAGGAAAAAGGAAAAAGGAAAGUAUUAUGUUACGCCGUUCGGAUCUGCACUUCUGGAAUUCUCGGGUGUCAAGG,-1.73
